Published values of several laboratories.
Compare with care: the assays were run in different laboratories. Several values in a cell are separate wells, animals, samples, runs or records. ± gives the spread as reported.
lecA: PA-I galactophilic lectin (lecA, Pseudomonas aeruginosa, UniProt Q05097)
UniProt Q05097, sequence (whole entry, looked up): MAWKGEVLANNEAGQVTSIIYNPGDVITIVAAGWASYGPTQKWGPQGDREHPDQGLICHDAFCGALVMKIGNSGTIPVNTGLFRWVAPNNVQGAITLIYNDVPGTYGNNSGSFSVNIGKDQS
SIRT2: NAD-dependent protein deacetylase sirtuin-2 (SIRT2, Homo sapiens, UniProt Q8IXJ6)
UniProt Q8IXJ6, sequence (whole entry, looked up): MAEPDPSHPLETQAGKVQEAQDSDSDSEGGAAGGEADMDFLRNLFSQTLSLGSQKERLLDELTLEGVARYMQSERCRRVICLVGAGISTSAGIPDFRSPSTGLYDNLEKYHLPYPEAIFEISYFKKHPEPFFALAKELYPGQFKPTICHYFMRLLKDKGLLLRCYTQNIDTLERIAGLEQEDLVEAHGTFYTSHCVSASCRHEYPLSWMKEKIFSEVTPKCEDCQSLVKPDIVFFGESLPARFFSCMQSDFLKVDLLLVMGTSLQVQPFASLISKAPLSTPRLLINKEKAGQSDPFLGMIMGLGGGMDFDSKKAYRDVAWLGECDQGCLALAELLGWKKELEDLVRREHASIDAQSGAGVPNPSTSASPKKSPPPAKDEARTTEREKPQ
UniProt P08311, sequence (whole entry, looked up): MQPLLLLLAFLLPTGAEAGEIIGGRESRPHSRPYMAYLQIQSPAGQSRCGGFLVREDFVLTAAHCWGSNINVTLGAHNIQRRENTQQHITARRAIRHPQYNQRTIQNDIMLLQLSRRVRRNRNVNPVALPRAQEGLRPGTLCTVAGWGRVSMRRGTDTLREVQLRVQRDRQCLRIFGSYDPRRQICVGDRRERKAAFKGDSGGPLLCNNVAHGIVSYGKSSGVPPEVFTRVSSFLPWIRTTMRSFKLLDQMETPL
UniProt Q14781, sequence (whole entry, looked up): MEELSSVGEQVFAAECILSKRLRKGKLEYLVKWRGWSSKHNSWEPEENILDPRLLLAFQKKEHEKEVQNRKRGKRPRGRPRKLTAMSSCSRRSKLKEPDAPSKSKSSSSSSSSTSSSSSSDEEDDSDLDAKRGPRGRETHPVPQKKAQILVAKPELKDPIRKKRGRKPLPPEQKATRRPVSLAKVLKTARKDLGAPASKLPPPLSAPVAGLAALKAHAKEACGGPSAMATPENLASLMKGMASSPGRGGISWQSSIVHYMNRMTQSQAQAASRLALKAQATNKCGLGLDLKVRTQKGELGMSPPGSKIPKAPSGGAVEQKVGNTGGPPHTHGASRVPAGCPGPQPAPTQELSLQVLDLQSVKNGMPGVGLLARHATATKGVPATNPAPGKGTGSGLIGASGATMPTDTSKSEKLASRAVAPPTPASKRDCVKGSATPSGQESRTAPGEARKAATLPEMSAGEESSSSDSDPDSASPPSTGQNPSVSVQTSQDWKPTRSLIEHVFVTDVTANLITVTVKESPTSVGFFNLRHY
UniProt Q15109, sequence (whole entry, looked up): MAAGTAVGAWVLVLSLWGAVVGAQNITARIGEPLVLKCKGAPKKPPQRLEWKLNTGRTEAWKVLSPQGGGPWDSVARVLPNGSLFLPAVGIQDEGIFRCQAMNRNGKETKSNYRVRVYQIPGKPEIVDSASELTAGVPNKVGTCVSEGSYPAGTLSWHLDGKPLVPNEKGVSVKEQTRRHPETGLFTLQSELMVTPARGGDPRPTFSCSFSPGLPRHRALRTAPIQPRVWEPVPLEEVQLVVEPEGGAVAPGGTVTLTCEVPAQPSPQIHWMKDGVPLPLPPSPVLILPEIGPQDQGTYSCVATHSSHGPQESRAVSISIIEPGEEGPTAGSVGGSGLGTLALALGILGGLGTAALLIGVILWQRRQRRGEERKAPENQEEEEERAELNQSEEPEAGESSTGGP
UniProt P28074, sequence (whole entry, looked up): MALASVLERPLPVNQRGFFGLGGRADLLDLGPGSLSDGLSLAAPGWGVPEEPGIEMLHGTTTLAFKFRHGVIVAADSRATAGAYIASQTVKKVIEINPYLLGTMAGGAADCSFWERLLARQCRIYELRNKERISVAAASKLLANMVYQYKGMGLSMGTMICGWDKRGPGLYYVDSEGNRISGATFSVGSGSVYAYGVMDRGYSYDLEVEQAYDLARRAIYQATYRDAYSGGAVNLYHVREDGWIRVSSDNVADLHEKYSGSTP
UniProt Q13188, sequence (whole entry, looked up): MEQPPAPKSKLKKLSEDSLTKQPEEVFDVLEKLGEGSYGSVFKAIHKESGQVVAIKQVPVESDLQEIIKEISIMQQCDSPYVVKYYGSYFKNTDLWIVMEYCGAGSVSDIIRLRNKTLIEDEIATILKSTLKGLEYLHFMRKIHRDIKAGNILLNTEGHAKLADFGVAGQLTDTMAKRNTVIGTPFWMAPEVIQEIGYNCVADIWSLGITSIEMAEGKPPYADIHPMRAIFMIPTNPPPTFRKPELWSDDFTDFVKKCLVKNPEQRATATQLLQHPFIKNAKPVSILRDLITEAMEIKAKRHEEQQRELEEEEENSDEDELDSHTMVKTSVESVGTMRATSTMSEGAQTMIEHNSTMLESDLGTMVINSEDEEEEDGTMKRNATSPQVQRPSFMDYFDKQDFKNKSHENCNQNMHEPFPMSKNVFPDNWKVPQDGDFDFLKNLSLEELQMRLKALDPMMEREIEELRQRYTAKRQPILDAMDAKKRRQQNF
UniProt Q01650, sequence (whole entry, looked up): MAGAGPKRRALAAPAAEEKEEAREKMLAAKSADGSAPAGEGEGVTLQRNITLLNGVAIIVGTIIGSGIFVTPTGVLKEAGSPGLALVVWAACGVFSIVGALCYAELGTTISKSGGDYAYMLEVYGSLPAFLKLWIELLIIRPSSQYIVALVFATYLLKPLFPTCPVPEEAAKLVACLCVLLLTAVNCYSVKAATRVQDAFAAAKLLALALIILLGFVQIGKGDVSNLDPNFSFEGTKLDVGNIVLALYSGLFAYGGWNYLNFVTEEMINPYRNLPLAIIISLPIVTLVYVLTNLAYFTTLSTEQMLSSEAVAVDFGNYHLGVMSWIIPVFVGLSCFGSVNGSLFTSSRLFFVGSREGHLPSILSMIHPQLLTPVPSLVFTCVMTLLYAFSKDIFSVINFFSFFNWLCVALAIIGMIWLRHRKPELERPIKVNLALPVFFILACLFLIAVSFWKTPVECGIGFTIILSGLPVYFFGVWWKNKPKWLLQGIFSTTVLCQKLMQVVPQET
UniProt P30101, sequence (whole entry, looked up): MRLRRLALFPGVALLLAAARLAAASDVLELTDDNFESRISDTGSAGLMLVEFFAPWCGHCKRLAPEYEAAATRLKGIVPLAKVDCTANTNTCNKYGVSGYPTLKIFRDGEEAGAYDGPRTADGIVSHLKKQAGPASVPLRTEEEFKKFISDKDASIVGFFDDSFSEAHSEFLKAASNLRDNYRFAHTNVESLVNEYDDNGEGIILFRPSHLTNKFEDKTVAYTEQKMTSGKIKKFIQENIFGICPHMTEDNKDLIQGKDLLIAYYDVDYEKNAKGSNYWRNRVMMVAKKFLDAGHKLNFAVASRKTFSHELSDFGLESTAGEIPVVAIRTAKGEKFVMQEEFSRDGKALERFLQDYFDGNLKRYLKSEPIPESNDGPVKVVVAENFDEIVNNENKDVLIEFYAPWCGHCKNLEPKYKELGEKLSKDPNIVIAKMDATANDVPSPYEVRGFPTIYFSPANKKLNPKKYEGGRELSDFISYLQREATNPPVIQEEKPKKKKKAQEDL
UniProt P45984, sequence (whole entry, looked up): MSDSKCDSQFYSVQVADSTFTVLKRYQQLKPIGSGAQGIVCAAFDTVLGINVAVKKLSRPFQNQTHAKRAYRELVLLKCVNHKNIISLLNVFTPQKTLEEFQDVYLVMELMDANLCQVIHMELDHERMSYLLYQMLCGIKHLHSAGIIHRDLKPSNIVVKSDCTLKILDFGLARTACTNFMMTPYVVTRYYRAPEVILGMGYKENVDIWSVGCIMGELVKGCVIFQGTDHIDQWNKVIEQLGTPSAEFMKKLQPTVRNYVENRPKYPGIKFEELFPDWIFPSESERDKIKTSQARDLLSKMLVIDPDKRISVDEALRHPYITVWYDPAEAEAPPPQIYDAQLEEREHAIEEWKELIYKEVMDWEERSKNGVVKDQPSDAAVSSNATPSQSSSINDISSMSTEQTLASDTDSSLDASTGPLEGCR
UniProt Q9BV86, sequence (whole entry, looked up): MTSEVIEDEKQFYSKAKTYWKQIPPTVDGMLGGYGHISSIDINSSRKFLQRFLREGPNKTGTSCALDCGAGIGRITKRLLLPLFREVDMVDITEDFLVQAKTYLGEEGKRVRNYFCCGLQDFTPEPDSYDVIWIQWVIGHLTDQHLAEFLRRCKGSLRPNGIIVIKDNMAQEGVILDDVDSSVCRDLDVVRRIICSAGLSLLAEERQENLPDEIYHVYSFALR

Compound | target | test | system | setting | IC50
C=C(NC(=O)C(=C)NC(=O)c1csc(C2=NC3c4csc(n4)C4NC(=O)c5csc(n5)C(C(C)(O)C(C)O)NC(=O)C5CSC(=N5)C(=CC)NC(=O)C(C(C)O)NC(=O)c5csc(n5)C3(CC2)NC(=O)C(CC(N)=O)NC(=O)C(=C)NC(=O)C(C)NC(=O)C(C(C)CC)NC2C=Cc3c(C(C)O)cc(nc3C2O)C(=O)OC4C)n1)C(N)=O (centres unmarked) | Proteasome Macropain subunit MB1 (PSMB5, Homo sapiens, UniProt P28074) | chymotrypsin-like activity, inhibitor | purified 20S proteasome | 15 min preincubation, 37 °C, with: Suc-Leu-Leu-Val-Tyr-AMC substrate | 890 ± 170 nM
C/C=C/C(=O)Nc1ccc2nc(NCCCCCN(C)C)nc(NCCCCCCN(C)C)c2c1 | Chromobox protein homolog 2, chromodomain (Homo sapiens, UniProt Q14781) | methyl-lysine binding, TR-FRET | – | – | > 100000 nM
O=C(c1cc2ccc(Cl)cc2s1)N(c1ccc(OCCN2CCCC2)cc1)c1ccc(OCCN2CCCC2)cc1 | Advanced glycosylation end product-specific receptor (AGER, Homo sapiens, UniProt Q15109) | AGE2-BSA binding, inhibitor, competitive ELISA | – | with: AGE2-BSA | 13200 nM
O=C(Cc1ccccc1O)N[C@@H](Cc1cn(CCNC(=O)c2ccc(S[C@@H]3O[C@H](CO)[C@H](O)[C@H](O)[C@H]3O)cc2)nn1)C(=O)NCCO | lecA | ligand displacement, FP | – | – | 75300 nM
N#Cc1cnc2cc(OCC3CCNCC3)c(F)cc2c1Nc1cc(F)c(OCc2cccc(Cl)n2)cc1Cl | Serine/threonine-protein kinase 3 (STK3, Homo sapiens, UniProt Q13188) | enzyme activity, inhibitor | – | – | 214 nM
CC[C@H](C)[C@H](NC(=O)[C@@H](NC(=O)[C@H](CCCCNC(C)=S)NC(=O)[C@H](CC(=O)O)NC(=O)[C@H](CO)NC(=O)[C@@H]1CCCN1C(=O)[C@@H](N)CCSC)[C@@H](C)O)C(=O)NCC(=O)NCC(=O)O | SIRT2 | enzyme activity, inhibitor, HPLC | – | – | ~11000 nM
O=C(Nc1ccc(C(=O)Nc2ccc(C(=O)Nc3ccc(S(=O)(=O)O)c4cc(S(=O)(=O)O)cc(S(=O)(=O)O)c34)cc2)cc1)Nc1ccc(C(=O)Nc2ccc(C(=O)Nc3ccc(S(=O)(=O)O)c4cc(S(=O)(=O)O)cc(S(=O)(=O)O)c34)cc2)cc1 | Cathepsin G (CTSG, Homo sapiens, UniProt P08311) | enzyme activity, inhibitor, absorbance | – | pH 7.4 | ~570 nM and 570 nM
CCCCCCc1ccc(S(=O)(=O)N2CC2C(=O)NC)cc1 (centres unmarked) | Protein disulfide-isomerase A3 (PDIA3, Homo sapiens, UniProt P30101) | enzyme activity, inhibitor, absorbance | – | pH 7.6 | 34600 nM
N=C(NCCCC(N)C(N)=O)NCCSCC1OC(n2cnc3c(N)ncnc32)C(O)C1O (centres unmarked) | N-terminal Xaa-Pro-Lys N-methyltransferase 1 (Homo sapiens, UniProt Q9BV86) | enzyme activity, inhibitor, fluorescence | – | – | > 100000 nM
N[C@@H](Cc1c[nH]c2cccc(OCc3ccccc3)c12)C(=O)O | Large neutral amino acids transporter small subunit 1 (SLC7A5, Homo sapiens, UniProt Q01650) | transporter uptake, inhibitor, radiometric | – | – | > 100000 nM
OC[C@H]1O[C@@H](OCc2cn([C@H]3[C@H](O)[C@@H](O)[C@H](c4cn([C@H]5[C@H](O)[C@@H](O)[C@H](n6cc([C@@H]7O[C@H](Cn8cc(-c9ccccc9)nn8)[C@@H](n8cc(CO[C@@H]9O[C@H](CO)[C@H](O)[C@H](O)[C@H]9O)nn8)[C@H](O)[C@H]7O)nn6)O[C@@H]5CO)nn4)O[C@@H]3Cn3cc(-c4ccccc4)nn3)nn2)[C@H](O)[C@@H](O)[C@H]1O | lecA | protein-protein interaction, inhibitor, ELISA | – | – | 4.9 nM
CC(C)C[C@H](NC(=O)[C@H](CC(N)=O)NC(=O)[C@H](CC(C)C)NC(=O)[C@@H](NC(=O)[C@@H](NC(=O)[C@@H]1CCCN1C(=O)[C@H](CCCNC(=N)N)NC(=O)[C@H](CCCCN)NC(=O)[C@@H]1CCCN1)[C@@H](C)O)[C@@H](C)O)C(=O)N[C@@H](Cc1ccccc1)C(N)=O | Mitogen-activated protein kinase 9 (MAPK9, Homo sapiens, UniProt P45984) | kinase activity, inhibitor, radiometric | – | pH 7.5, 30 °C, with: GST-c-Jun substrate | 2000 ± 150 nM
CC(C)=CCC[C@](C)(O)[C@H]1CC[C@]2(C)[C@@H]1[C@H](O)C[C@@H]1[C@@]3(C)CC[C@H](O)C(C)(C)[C@@H]3CC[C@]12C | alpha-glucosidase (yeast) | enzyme activity | – | with: pNPG | 12500 ± 1220 nM
Cc1cc(C)nc(SCC(=O)Nc2ncc(Cc3cccc(OCc4cn(-c5ccc(Cl)cc5)nn4)c3)s2)n1 | SIRT2 | enzyme activity, inhibitor, fluorescence | – | – | 110 nM

Repeated from above:
Compound | target | test | system | setting | IC50
CCCCCCc1ccc(S(=O)(=O)N2CC2C(=O)NC)cc1 (centres unmarked) | Protein disulfide-isomerase A3 (PDIA3, Homo sapiens, UniProt P30101) | enzyme activity, inhibitor, absorbance | – | pH 7.6 | 34600 nM
